# Assay results collected from several papers.
# Each line is one published result; not all experiments were run side by side. ± gives the spread as reported.
# BIRC3 BIR3: Baculoviral IAP repeat-containing protein 3, BIR3 (BIRC3, Homo sapiens, UniProt Q13489)
# CA6: Carbonic anhydrase 6 (CA6, Homo sapiens, UniProt P23280)
# CASP7: Caspase-7 (CASP7, Homo sapiens, UniProt P55210)
# VIM-2: Metallo-beta-lactamase VIM-2 (VIM-2, Escherichia coli, UniProt Q5U7L7)
# Beta-lactamase CTX-M-27: Beta-lactamase CTX-M-27 (Escherichia coli, UniProt Q840M4)
# BIRC2 BIR3: Baculoviral IAP repeat-containing protein 2, BIR3 (BIRC2, Homo sapiens, UniProt Q13490)
# Alpha-galactosidase: Alpha-galactosidase (Coffea arabica, UniProt Q42656)
# NOS3: Nitric oxide synthase 3 (NOS3, Bos taurus, UniProt P29473)
Compound,target,assay,setting,Ki [µM]
CN[C@@H](C)C(=O)N[C@H]1CN(C(=O)Cc2ccccc2)CC[C@H]2CC[C@@H](C(=O)NCc3ccc(C(N)=O)cc3)N2C1=O,BIRC3 BIR3,"ligand displacement, FP",,0.539
COCCOc1cc2ncnc(Nc3cccc(-c4cn(-c5ccc(S(N)(=O)=O)cc5)nn4)c3)c2cc1OCCOC,CA6,"enzyme activity, inhibitor, stopped-flow",,0.36
CN[C@@H](C)C(=O)N[C@H]1CN(C(=O)Cc2ccccc2)CC[C@H]2CC[C@@H](C(=O)NCc3ccc(C(C)C)cc3)N2C1=O,BIRC3 BIR3,"ligand displacement, FP",,0.157
CC(=O)N[C@@H](CCC(N)=O)C(=O)N[C@@H](CC(=O)O)C(=O)N[C@H](C(=O)N[C@@H](CCCNC(=N)N)C(=O)N[C@H](C=O)CC(=O)O)[C@@H](C)O,CASP7,"enzyme activity, inhibitor, fluorescence",pH 7,0.282
CC[C@H](C)[C@H](NC(=O)[C@@H]1CSSC[C@H](NC(=O)[C@H](Cc2ccc(O)cc2)NC(=O)CN)C(=O)N[C@@H](CO)C(=O)N[C@@H](CCCNC(=N)N)C(=O)N[C@@H](CO)C(=O)N[C@@H](Cc2ccc(O)cc2)C(=O)N2CCC[C@H]2C(=O)N2CCC[C@H]2C(=O)N[C@@H](C(C)C)C(=O)N1)C(=O)N1CCC[C@H]1C(=O)N[C@@H](CC(=O)O)C(=O)O,"Mannan-binding lectin serine protease 2 (Homo sapiens, UniProt O00187)","enzyme activity, inhibitor",,0.21
CC(C)OC(=O)C(CS)N1C(=O)c2ccc(N(C)C)cc2C1=O (stereo not drawn),VIM-2,"enzyme activity, inhibitor","Km 8 µM, with: chromacef 25 µM",0.08 ± 0.01
O=C1c2c(O)cccc2[C@@H]([C@@H]2O[C@H](CO)[C@@H](O)[C@H](O)[C@H]2O)c2cc(CO)cc(O)c21,"IDO1 (Homo sapiens, UniProt P14902)","uncompetitive inhibitor, Lineweaver-Burk plot",,70.2
O=C(Nc1cccc(-c2nn[nH]n2)c1)c1cc(-c2ncc[nH]2)cc(C(F)(F)F)c1,Beta-lactamase CTX-M-27,"enzyme activity, inhibitor, absorbance",pH 7,4.04
CCc1ccc(CNC(=O)[C@@H]2CC[C@@H]3CCN(C(=O)Cc4ccccc4)C[C@H](NC(=O)[C@H](C)NC)C(=O)N32)cc1,BIRC2 BIR3,"ligand displacement, FP",,0.0149
CCC[C@@H]1[C@H](O)[C@@H](O)[C@H](O)[C@@H](CO)N1C(=S)NCc1ccc(OC)cc1,Alpha-galactosidase,"enzyme activity, competitive inhibitor","green coffee bean enzyme, optimal pH, with: p-nitrophenyl glycopyranoside",> 2000
COCCOc1cc2ncnc(Nc3cccc(-c4cn(Cc5ccc(C(=O)Nc6cccc(S(N)(=O)=O)c6)cc5)nn4)c3)c2cc1OCCOC,"CA5A (Homo sapiens, UniProt P35218)","enzyme activity, inhibitor, stopped-flow",,0.107
CCCCCCCCCCCCCCN(O)C(=O)CCCCC[C@@H]1NC(=O)[C@H]([C@@H](C)CC)NC(=O)[C@H](Cc2ccccc2C(F)(F)F)NC(=O)CCSCc2cccc(n2)CSCCCNC1=O,"HDAC11 (Homo sapiens, UniProt Q96DB2)","enzyme activity, inhibitor, fluorescence",,0.05
CCC[C@@H]1[C@H](O)[C@@H](O)[C@H](O)[C@@H](CO)N1C(=S)NCCc1ccccc1,Alpha-galactosidase,"enzyme activity, competitive inhibitor","green coffee bean enzyme, optimal pH, with: p-nitrophenyl glycopyranoside",> 2000
CN(C)c1ccc2c3c(cccc13)C(=O)N(CCS)C2=O,VIM-2,"enzyme activity, inhibitor","Km 8 µM, with: chromacef 25 µM",0.027 ± 0.001
CC(C)CN(NC(=O)[C@H](CCCNC(=N)N)NC(=O)[C@H](Cc1ccc(O)cc1)NC(=O)CCCCCCC(=O)N[C@@H](Cc1ccc(O)cc1)C(=O)N[C@@H](CCCNC(=N)N)C(=O)NN(CC(C)C)C(=O)N[C@@H](CCCNC(=N)N)C(=O)N[C@@H](Cc1ccc(O)cc1)C(N)=O)C(=O)N[C@@H](CCCNC(=N)N)C(=O)N[C@@H](Cc1ccc(O)cc1)C(N)=O,"NPY5R (Homo sapiens, UniProt Q15761)","ligand displacement, radioligand",,2.7
Cc1cc(N)nc(CC2CNCC2OCCNCC(F)(F)c2ccc(F)cc2)c1 (stereo not drawn),NOS3,"enzyme activity, inhibitor, hemoglobin capture",,31
COCCOc1cc2ncnc(Nc3cccc(-c4cn(Cc5ccc(C(=O)Nc6ccc(S(N)(=O)=O)cc6)cc5)nn4)c3)c2cc1OCCOC,CA6,"enzyme activity, inhibitor, stopped-flow",,2.6
CN[C@@H](C)C(=O)N[C@H]1CN(C(=O)Cc2ccccc2)CC[C@H]2CC[C@@H](C(=O)NCc3ccc([N+](=O)[O-])cc3)N2C1=O,BIRC3 BIR3,"ligand displacement, FP",,0.0314
O=C(Nc1cccc(-c2nn[nH]n2)c1)c1cc(-c2cccnc2)cc(C(F)(F)F)c1,Beta-lactamase CTX-M-27,"enzyme activity, inhibitor, absorbance",pH 7,2.65
Cc1cc(N)nc(C[C@@H]2CNC[C@@H]2OCCCCCc2cccc(N)n2)c1,NOS3,"enzyme activity, inhibitor",pH 7.4,33.5
O=C(Nc1cccc(-c2nn[nH]n2)c1)c1cc(-c2ncccn2)cc(C(F)(F)F)c1,Beta-lactamase CTX-M-27,"enzyme activity, inhibitor, absorbance",pH 7,2.26
CC(=O)N[C@@H](CC(C)C)C(=O)N[C@@H](CC(=O)O)C(=O)N[C@H](C(=O)N1CCC[C@H]1C(=O)N[C@H](C=O)CC(=O)O)C(C)C,CASP7,"enzyme activity, inhibitor, fluorescence",pH 7,0.0209
CN[C@@H](C)C(=O)N[C@H]1CN(C(=O)Cc2ccccc2)CC[C@H]2CC[C@@H](C(=O)NCc3ccccc3F)N2C1=O,BIRC3 BIR3,"ligand displacement, FP",,0.0257
O=C(O)c1ccc2nc(-c3ccc(OCCCCCCCCOc4ccc(-c5nc6ccc(C(=O)O)cc6[nH]5)cc4)cc3)[nH]c2c1,"Dihydrofolate reductase type 2 (Escherichia coli, UniProt P00383)","enzyme activity, inhibitor",pH 7,2.1 ± 0.9
CNCc1c(OCc2ccc(F)cc2)ccc2ccccc12,"SLC6A2 (Homo sapiens, UniProt P23975)","ligand displacement in cells, radioligand",,0.613
CN[C@@H](C)C(=O)N[C@H]1CN(C(=O)Cc2ccccc2)CC[C@H]2CC[C@@H](C(=O)NCc3ccccc3Br)N2C1=O,BIRC2 BIR3,"ligand displacement, FP",,0.0229
O=C(O)CC[C@H](NC(=O)/C=C/c1ccc(O)c(O)c1)C(=O)NCCCOc1c(-c2ccc(O)c(O)c2)oc2cc(O)cc(O)c2c1=O,"Pancreatic alpha-amylase (Homo sapiens, UniProt P04746)",inhibitor,pH 7,34 ± 5

# Some of these lines once more:
Compound,target,assay,setting,Ki [µM]
CC(=O)N[C@@H](CCC(N)=O)C(=O)N[C@@H](CC(=O)O)C(=O)N[C@H](C(=O)N[C@@H](CCCNC(=N)N)C(=O)N[C@H](C=O)CC(=O)O)[C@@H](C)O,CASP7,"enzyme activity, inhibitor, fluorescence",pH 7,0.282
CC[C@H](C)[C@H](NC(=O)[C@@H]1CSSC[C@H](NC(=O)[C@H](Cc2ccc(O)cc2)NC(=O)CN)C(=O)N[C@@H](CO)C(=O)N[C@@H](CCCNC(=N)N)C(=O)N[C@@H](CO)C(=O)N[C@@H](Cc2ccc(O)cc2)C(=O)N2CCC[C@H]2C(=O)N2CCC[C@H]2C(=O)N[C@@H](C(C)C)C(=O)N1)C(=O)N1CCC[C@H]1C(=O)N[C@@H](CC(=O)O)C(=O)O,"Mannan-binding lectin serine protease 2 (Homo sapiens, UniProt O00187)","enzyme activity, inhibitor",,0.21
CC(C)OC(=O)C(CS)N1C(=O)c2ccc(N(C)C)cc2C1=O (stereo not drawn),VIM-2,"enzyme activity, inhibitor","Km 8 µM, with: chromacef 25 µM",0.08 ± 0.01
O=C1c2c(O)cccc2[C@@H]([C@@H]2O[C@H](CO)[C@@H](O)[C@H](O)[C@H]2O)c2cc(CO)cc(O)c21,"IDO1 (Homo sapiens, UniProt P14902)","uncompetitive inhibitor, Lineweaver-Burk plot",,70.2
O=C(Nc1cccc(-c2nn[nH]n2)c1)c1cc(-c2ncc[nH]2)cc(C(F)(F)F)c1,Beta-lactamase CTX-M-27,"enzyme activity, inhibitor, absorbance",pH 7,4.04
